Measured values collected from several papers.
Protocols differ between the studies behind these lines. ± marks the error that the study gave.
Phosphatidylinositol 3-kinase regulatory subunit gamma SH2 domain: Phosphatidylinositol 3-kinase regulatory subunit gamma, SH2 domain (Homo sapiens, UniProt Q92569)
Sequence of UniProt Q8LBL5 (whole entry, looked up): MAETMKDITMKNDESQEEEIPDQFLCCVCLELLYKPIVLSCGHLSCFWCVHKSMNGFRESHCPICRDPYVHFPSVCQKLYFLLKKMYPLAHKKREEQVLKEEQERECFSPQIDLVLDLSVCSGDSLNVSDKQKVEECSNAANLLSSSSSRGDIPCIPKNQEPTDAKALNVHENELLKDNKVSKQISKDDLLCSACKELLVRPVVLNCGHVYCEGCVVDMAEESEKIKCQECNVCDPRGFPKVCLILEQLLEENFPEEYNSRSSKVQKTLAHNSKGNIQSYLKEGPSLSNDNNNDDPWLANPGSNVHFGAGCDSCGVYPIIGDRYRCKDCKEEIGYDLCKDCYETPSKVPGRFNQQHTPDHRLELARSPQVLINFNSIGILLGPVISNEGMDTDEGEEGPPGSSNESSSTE
Sequence of UniProt O49687 (55-253, looked up): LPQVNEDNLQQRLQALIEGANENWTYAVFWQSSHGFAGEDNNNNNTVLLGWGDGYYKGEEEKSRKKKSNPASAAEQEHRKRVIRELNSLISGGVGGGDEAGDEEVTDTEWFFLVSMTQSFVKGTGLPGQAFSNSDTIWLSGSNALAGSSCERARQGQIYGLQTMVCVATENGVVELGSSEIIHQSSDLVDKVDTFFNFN
Sequence of UniProt O00459 (whole entry, looked up): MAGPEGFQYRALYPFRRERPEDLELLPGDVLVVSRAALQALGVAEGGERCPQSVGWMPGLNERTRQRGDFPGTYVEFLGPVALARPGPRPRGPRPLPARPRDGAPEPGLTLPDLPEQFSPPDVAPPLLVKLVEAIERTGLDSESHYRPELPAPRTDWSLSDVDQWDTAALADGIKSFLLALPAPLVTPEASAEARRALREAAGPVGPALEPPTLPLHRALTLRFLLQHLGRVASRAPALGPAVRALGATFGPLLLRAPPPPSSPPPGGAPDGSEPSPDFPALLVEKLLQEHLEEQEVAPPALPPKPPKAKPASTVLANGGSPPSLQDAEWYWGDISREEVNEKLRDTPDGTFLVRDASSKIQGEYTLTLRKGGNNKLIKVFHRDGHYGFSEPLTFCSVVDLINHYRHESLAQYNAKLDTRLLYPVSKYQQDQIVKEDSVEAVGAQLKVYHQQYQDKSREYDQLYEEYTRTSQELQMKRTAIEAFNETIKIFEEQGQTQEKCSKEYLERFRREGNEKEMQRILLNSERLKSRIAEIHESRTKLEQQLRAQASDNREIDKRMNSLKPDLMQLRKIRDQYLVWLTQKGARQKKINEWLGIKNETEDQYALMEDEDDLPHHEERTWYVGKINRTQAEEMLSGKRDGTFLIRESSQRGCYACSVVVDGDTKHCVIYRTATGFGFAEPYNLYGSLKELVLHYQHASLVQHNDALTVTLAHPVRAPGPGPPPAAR
Sequence of UniProt Q9EP73 (whole entry, looked up): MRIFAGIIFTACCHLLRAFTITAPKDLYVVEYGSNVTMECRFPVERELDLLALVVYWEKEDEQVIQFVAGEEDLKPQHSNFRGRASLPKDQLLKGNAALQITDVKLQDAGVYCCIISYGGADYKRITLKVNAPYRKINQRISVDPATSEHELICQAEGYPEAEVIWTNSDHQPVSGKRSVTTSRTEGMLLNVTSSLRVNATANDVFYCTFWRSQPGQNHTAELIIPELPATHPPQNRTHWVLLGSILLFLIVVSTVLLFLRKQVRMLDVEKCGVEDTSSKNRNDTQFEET
Sequence of UniProt P51679 (whole entry, looked up): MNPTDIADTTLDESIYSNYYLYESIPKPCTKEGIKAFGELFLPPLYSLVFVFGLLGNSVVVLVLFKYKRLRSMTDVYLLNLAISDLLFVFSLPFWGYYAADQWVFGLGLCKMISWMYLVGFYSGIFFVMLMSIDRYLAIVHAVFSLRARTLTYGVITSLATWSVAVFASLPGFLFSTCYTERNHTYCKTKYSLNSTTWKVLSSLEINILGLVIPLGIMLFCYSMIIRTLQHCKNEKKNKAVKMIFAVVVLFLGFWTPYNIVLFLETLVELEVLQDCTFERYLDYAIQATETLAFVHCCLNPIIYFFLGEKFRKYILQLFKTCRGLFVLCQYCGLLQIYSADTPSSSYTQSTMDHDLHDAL
Sequence of UniProt P03023 (whole entry, unmodified, looked up): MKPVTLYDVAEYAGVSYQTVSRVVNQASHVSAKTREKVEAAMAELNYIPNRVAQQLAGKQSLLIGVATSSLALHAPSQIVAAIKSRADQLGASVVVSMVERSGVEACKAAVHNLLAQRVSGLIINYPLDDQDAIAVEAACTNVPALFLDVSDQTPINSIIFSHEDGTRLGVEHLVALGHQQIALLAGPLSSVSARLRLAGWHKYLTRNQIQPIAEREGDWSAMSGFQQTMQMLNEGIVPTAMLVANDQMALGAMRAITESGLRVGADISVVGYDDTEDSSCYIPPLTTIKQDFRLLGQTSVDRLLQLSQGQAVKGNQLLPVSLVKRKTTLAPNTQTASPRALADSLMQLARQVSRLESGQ
Sequence of UniProt Q06151 (whole entry, unmodified, looked up): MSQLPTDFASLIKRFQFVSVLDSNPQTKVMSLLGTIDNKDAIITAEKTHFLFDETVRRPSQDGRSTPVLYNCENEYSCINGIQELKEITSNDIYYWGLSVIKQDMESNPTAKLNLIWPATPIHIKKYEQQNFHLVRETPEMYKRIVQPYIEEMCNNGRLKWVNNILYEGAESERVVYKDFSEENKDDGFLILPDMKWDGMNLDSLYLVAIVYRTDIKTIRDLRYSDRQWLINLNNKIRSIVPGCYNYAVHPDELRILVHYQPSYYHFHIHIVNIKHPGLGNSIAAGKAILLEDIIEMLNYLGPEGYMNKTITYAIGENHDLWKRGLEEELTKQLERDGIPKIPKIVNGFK
Sequence of UniProt Q08460 (whole entry, looked up): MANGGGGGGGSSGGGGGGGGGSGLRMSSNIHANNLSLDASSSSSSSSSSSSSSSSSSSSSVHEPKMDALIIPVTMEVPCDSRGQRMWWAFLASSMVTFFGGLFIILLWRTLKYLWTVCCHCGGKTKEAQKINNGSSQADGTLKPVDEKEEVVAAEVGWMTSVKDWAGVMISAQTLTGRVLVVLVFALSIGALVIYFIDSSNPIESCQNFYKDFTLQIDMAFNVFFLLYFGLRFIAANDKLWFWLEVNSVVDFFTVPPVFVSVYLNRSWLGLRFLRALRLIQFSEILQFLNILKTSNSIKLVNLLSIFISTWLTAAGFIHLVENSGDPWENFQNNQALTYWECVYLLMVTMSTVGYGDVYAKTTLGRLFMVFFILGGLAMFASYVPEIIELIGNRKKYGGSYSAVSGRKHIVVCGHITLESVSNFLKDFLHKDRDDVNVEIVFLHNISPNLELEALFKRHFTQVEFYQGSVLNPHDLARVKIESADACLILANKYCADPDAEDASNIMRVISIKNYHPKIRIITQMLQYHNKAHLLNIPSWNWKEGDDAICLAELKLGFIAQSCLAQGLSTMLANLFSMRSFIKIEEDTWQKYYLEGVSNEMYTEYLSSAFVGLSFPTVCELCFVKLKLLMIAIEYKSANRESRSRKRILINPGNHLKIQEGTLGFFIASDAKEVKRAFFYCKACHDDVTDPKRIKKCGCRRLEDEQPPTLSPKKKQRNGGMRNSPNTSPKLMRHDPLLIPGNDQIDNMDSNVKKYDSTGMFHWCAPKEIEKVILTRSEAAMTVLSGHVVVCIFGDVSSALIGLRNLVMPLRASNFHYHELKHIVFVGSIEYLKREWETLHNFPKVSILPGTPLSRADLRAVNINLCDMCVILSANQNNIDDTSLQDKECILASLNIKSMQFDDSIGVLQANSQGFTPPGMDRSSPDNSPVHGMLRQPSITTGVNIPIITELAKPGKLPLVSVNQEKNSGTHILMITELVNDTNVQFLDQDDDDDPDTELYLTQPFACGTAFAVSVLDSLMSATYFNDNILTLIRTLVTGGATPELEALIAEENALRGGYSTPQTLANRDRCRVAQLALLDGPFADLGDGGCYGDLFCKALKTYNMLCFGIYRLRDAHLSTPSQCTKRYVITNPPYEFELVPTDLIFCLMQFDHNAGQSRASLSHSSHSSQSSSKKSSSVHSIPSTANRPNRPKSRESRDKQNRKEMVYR
Sequence of UniProt P51451 (whole entry, looked up): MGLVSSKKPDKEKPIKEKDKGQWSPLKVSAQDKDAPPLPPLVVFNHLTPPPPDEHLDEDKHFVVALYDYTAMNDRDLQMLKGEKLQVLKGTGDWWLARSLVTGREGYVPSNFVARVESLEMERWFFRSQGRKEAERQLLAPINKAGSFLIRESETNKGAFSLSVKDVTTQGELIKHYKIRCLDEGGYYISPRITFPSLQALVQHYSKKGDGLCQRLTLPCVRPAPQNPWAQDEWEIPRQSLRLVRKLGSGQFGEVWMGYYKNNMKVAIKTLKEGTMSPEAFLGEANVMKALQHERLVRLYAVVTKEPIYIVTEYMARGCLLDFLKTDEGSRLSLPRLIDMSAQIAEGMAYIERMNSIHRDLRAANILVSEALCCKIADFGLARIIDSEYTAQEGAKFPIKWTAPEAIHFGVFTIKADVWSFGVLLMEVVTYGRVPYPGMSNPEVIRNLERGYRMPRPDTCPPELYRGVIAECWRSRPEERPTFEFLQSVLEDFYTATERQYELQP

Compound | target or system | assay | system | conditions | measurement | value
CC[C@H](CO)Nc1nc(NCc2ccc(-c3ccccn3)cc2)c2ncn(C(C)C)c2n1 | DYRK1A (Homo sapiens, UniProt Q13627) | binding, competition affinity chromatography | SH-SY5Y cell extract |  | Kd | 3.3 µM
Cn1c2cccc(=O)c-2nc2ccccc21 | Multidrug resistance operon repressor (mexR, Pseudomonas aeruginosa, UniProt P52003, C62A/M61A/Q60A) |  |  |  | Kd | 258 µM
CSCC[C@H](NC(=O)[C@H](CC(C)C)NC(=O)[C@H](C)NC(=O)[C@H](CCCNC(=N)N)NC(=O)[C@H](Cc1ccc(OP(=O)(O)O)cc1)NC(=O)[C@H](Cc1ccccc1)NC(=O)[C@H](CC(N)=O)NC(=O)[C@H](CO)NC(=O)[C@H](CC(=O)O)NC(=O)[C@@H](NC(=O)[C@@H]1CCCN1C(=O)[C@H](CO)NC(=O)[C@@H]1CCCN1C(=O)[C@H](CC(C)C)NC(=O)c1ccc2c(c1)C(=O)OC21c2ccc(N(C)C)cc2Oc2cc(N(C)C)ccc21)[C@@H](C)O)C(=O)N[C@@H](CC(=O)O)C(=O)N[C@@H](CCC(=O)O)C(=O)N[C@@H](CCC(=O)O)C(=O)N[C@@H](CC(=O)O)C(=O)O | Phosphatidylinositol 3-kinase regulatory subunit gamma SH2 domain | binding |  |  | Kd | 0.968 µM
COc1cc(Nc2ncc(F)c(Nc3ccc4c(n3)NC(=O)C(C)(C)O4)n2)cc(OC)c1OC | CCR4 (Homo sapiens, UniProt P51679) |  |  |  | IC50 | > 10 µM
N[C@@H](CO)C(=O)O | spt (Sphingomonas paucimobilis, UniProt Q93UV0, R378A) | binding |  |  | Kd | 1340 µM
CC(C)S[C@@H]1O[C@H](CO)[C@H](O)[C@H](O)[C@H]1O | lacI (Escherichia coli, UniProt P03023, N125C) |  |  |  | Kd | 1.4 ± 0.1 µM
CC(C)C[C@H](NC(=O)[C@H](Cc1ccc(OP(=O)(O)O)cc1)NC(=O)[C@H](CCC(=O)O)NC(=O)[C@H](C)NC(=O)[C@H](CC(N)=O)NC(=O)[C@H](CCC(=O)O)NC(=O)[C@H](C)NC(=O)[C@@H](NC(=O)[C@H](CO)NC(=O)CNC(=O)[C@H](CCCCN)NC(=O)c1ccc2c(c1)C(=O)OC21c2ccc(N(C)C)cc2Oc2cc(N(C)C)ccc21)[C@@H](C)O)C(=O)N[C@@H](CCCNC(=N)N)C(=O)N[C@H](C(=O)N[C@@H](C)C(=O)N1CCC[C@H]1C(=O)N[C@@H](CCC(N)=O)C(=O)N[C@@H](CO)C(=O)N[C@@H](CC(=O)O)C(=O)O)C(C)C | Phosphatidylinositol 3-kinase regulatory subunit gamma SH2 domain | binding |  |  | Kd | 1.11 µM
Nc1ncnc2c1ncn2[C@@H]1O[C@H](COP(=O)(O)OP(=O)(O)OP(=O)(O)O)[C@@H](O)[C@H]1O | matB (Rhodopseudomonas palustris, UniProt Q6ND88, C106A/K488A/Q457C/R286C) | binding |  | pH 8.0, 100 mM NaCl | Kd | 4.6 ± 0.2 µM
CSCC[C@H](NC(=O)[C@H](CC(=O)O)NC(=O)c1ccc2c(c1)C(=O)OC21c2ccc(N(C)C)cc2Oc2cc(N(C)C)ccc21)C(=O)N[C@@H](CO)C(=O)N[C@@H](CCCCN)C(=O)N[C@@H](CC(=O)O)C(=O)N[C@@H](CCC(=O)O)C(=O)N[C@@H](CO)C(=O)N[C@H](C(=O)N[C@@H](CC(=O)O)C(=O)N[C@@H](Cc1ccc(OP(=O)(O)O)cc1)C(=O)N[C@H](C(=O)N1CCC[C@H]1C(=O)N[C@@H](CCSC)C(=O)N[C@@H](CC(C)C)C(=O)N[C@@H](CC(=O)O)C(=O)N[C@@H](CCSC)C(=O)N[C@@H](CCCCN)C(=O)N[C@@H](CC(=O)O)C(=O)O)C(C)C)C(C)C | Phosphatidylinositol 3-kinase regulatory subunit beta, SH2 domain (Homo sapiens, UniProt O00459) | binding |  |  | Kd | 0.01 µM
CC[C@H](C)[C@H](NC(=O)[C@H](CCCCN)NC(=O)[C@H](CO)NC(=O)[C@@H](NC(=O)[C@]1(C)CCCC=CCCC[C@](C)(NC(=O)[C@H](CCCNC(=N)N)NC(=O)[C@H](Cc2ccccc2)NC(=O)[C@H](CO)NC(=O)[C@H](CCCNC(=N)N)NC(=O)[C@H](CCCNC(=N)N)NC(=O)[C@H](CCCNC(=N)N)NC(=O)[C@H](CC(=O)O)NC(=O)[C@H](CC(C)C)NC(=O)[C@H](Cc2ccccc2)NC(=O)[C@H](CCCCN)NC(=O)[C@H](CCC(N)=O)NC(=O)[C@H](Cc2ccccc2)NC(=O)c2ccc(-c3c4ccc(=[N+](C)C)cc-4oc4cc(N(C)C)ccc34)c(C(=O)[O-])c2)C(=O)N[C@@H]([C@@H](C)CC)C(=O)N[C@@H](CCC(N)=O)C(=O)NCC(=O)N1)[C@@H](C)CC)C(=O)N[C@@H](CC(=O)O)C(=O)N1CCC[C@H]1C(=O)N[C@@H](CCC(=O)O)C(=O)N[C@]1(C)CCCC=CCCC[C@@](C)(C(=O)N[C@@H](CC(C)C)C(=O)N[C@@H](CC(C)C)C(=O)N[C@@H](C)C(=O)N[C@@H](CO)C(=O)N[C@H](C(=O)O)[C@@H](C)O)NC(=O)[C@H](CCCCN)NC(=O)[C@H]([C@@H](C)CC)NC1=O | Transcription factor MYC4, residues 55-253 (MYC4, Arabidopsis thaliana, UniProt O49687) | fluorescence anisotropy |  | protein titration, with: TMR-labelled tracer | Kd | 0.023 µM
COc1cc2c(Oc3ccc4[nH]c(C)cc4c3F)ccnc2cc1OCC1(N)CC1 |  |  | paediatric recurrent refractory sarcoma | 10 mg | grade 3 Hematochezia | 0%
CSCC[C@H](NC(=O)[C@H](Cc1ccc(OP(=O)(O)O)cc1)NC(=O)CNC(=O)CNC(=O)[C@H](CC(=O)O)NC(=O)[C@H](CO)NC(=O)[C@H](CCC(=O)O)NC(=O)CNC(=O)[C@@H](NC(=O)[C@H](CC(C)C)NC(=O)[C@H](CO)NC(=O)c1ccc2c(c1)C(=O)OC21c2ccc(N(C)C)cc2Oc2cc(N(C)C)ccc21)[C@@H](C)O)C(=O)N[C@@H](CC(=O)O)C(=O)N[C@@H](CCSC)C(=O)N[C@@H](CO)C(=O)N[C@@H](CCCCN)C(=O)N[C@@H](CC(=O)O)C(=O)N[C@@H](CCC(=O)O)C(=O)N[C@@H](CC(=O)O)C(=O)O | Tyrosine-protein kinase Yes, SH2 domain (YES1, Homo sapiens, UniProt P07947) | binding |  |  | Kd | 0.718 µM
C[C@H](NC(=O)[C@@H](N)Cc1ccc(O)cc1)C(=O)N[C@@H](Cc1ccccc1)C(=O)O | E3 ubiquitin-protein ligase PRT1, ZZ domain (PRT1, Arabidopsis thaliana, UniProt Q8LBL5) | binding, ITC |  | pH 7.5, ZZ domain | Kd | 10.1 ± 0.851 µM
CC[C@@H](C)[C@@H](NC(=O)[C@@H](Cc1ccc(O)cc1)NC(=O)[C@H]1CCCN1C(=O)[C@@H](CCCNC(=N)N)NC(=O)[C@H](N)Cc1c[nH]cn1)C(=O)N[C@H](C)C(=O)N[C@H](Cc1c[nH]cn1)C(=O)N[C@H](CCCNC(=N)N)C(=O)N[C@@H](C(=O)N[C@H](Cc1ccc(O)cc1)C(=O)N[C@H](CO)C(=O)N[C@H](Cc1ccccc1)C(N)=O)C(C)C | Cd274 (Mus musculus, UniProt Q9EP73) | microscale thermophoresis |  | 2 h, His-tagged protein | Kd | 6.4 ± 1.2 µM
C[C@H](NC(=O)[C@H](CCCCN)NC(=O)[C@@H](N)Cc1ccccc1)C(=O)O | E3 ubiquitin-protein ligase PRT1 (PRT1, Arabidopsis thaliana, UniProt Q8LBL5) | ITC |  | pH 7.5, 25 °C | Kd | 9.67 ± 1.56 µM
CC[C@H](C)[C@H](NC(=O)[C@H](CCC(N)=O)NC(=O)[C@@H](NC(=O)[C@@H]1CCCN1C(=O)[C@@H](NC(=O)[C@H](CO)NC(=O)[C@H](Cc1ccccc1)NC(=O)[C@@H]1CCCN1C(=O)[C@H](CCC(N)=O)NC(=O)[C@@H](N)CCSC)[C@@H](C)CC)C(C)C)C(=O)N[C@H](C(=O)N[C@@H](CC(C)C)C(=O)N[C@@H](CCC(N)=O)C(=O)NCC(=O)N[C@@H](CO)C(=O)N[C@@H](CCCNC(=N)N)C(=O)N[C@@H](CCCNC(=N)N)C(=O)N[C@@H](CCCNC(=N)N)C(=O)N[C@@H](CCC(N)=O)C(=O)NCC(=O)N[C@@H](CCCNC(=N)N)C(N)=O)[C@@H](C)O | Kcnma1 (Mus musculus, UniProt Q08460) | ion current, blocker, inside-out patch clamp | Xenopus oocytes | +120 mV, with: 10 µM cytosolic Ca2+ | Kd | 0.27 µM
O=C(Nc1nncs1)C(F)(F)Br | MAPK10 (Homo sapiens, UniProt P53779) |  |  | pH 7.4 | Kd | 318 µM
C/C1=C\[C@H](C)C[C@H](C)OC(=O)C[C@H](c2ccc(O)cc2)NC(=O)[C@@H](Cc2c(Br)[nH]c3ccccc23)N(C)C(=O)[C@H](C)NC(=O)[C@@H](C)C1 | ACTC1/TPM1 (Bos taurus, UniProt Q3ZC07+Q5KR49) | binding, isothermal titration calorimetry |  |  | Kd | 0.00264 µM
CC[C@H](C)[C@H](NC(=O)[C@H](Cc1ccc(OP(=O)(O)O)cc1)NC(=O)[C@H](CCC(=O)O)NC(=O)[C@@H]1CCCN1C(=O)[C@@H](NC(=O)[C@@H]1CCCN1C(=O)[C@H](CC(C)C)NC(=O)[C@H](Cc1ccccc1)NC(=O)[C@@H](NC(=O)[C@H](CC(=O)O)NC(=O)[C@H](CC(=O)O)NC(=O)c1ccc2c(c1)C(=O)OC21c2ccc(N(C)C)cc2Oc2cc(N(C)C)ccc21)[C@@H](C)O)C(C)C)C(=O)N[C@@H](CC(N)=O)C(=O)N[C@@H](CCC(N)=O)C(=O)N[C@@H](CO)C(=O)N[C@H](C(=O)N1CCC[C@H]1C(=O)N[C@@H](CCCCN)C(=O)N[C@@H](CC(=O)O)C(=O)O)C(C)C | Tyrosine-protein kinase Blk, SH2 domain (BLK, Homo sapiens, UniProt P51451) | binding |  |  | Kd | 0.3 µM
C[n+]1cn([C@@H]2O[C@H](COP(=O)(O)OP(=O)([O-])OP(=O)(O)OC[C@H]3O[C@@H](n4cnc5c(=O)[nH]c(N)nc54)[C@H](O)[C@@H]3O)[C@@H](O)[C@H]2O)c2nc(N)[nH]c(=O)c21 | m7GpppX diphosphatase, C-terminal domain (DCS1, Saccharomyces cerevisiae, UniProt Q06151, H268N) | binding, isothermal titration calorimetry |  | DcpS C-terminal domain dimer | Kd | 65 µM
CC[C@H](C)[C@H](NC(=O)[C@H](Cc1ccc(OP(=O)(O)O)cc1)NC(=O)[C@H](CCC(=O)O)NC(=O)[C@H](Cc1c[nH]cn1)NC(=O)CNC(=O)[C@H](CC(=O)O)NC(=O)[C@H](CO)NC(=O)[C@H](CO)NC(=O)[C@@H](NC(=O)[C@H](CO)NC(=O)[C@H](CCC(=O)O)NC(=O)c1ccc2c(c1)C(=O)OC21c2ccc(N(C)C)cc2Oc2cc(N(C)C)ccc21)C(C)C)C(=O)N[C@@H](Cc1ccc(O)cc1)C(=O)N[C@H](C(=O)N[C@@H](CC(=O)O)C(=O)N1CCC[C@H]1C(=O)N[C@@H](CCSC)C(=O)N[C@@H](CCC(N)=O)C(=O)N[C@@H](CC(=O)O)C(=O)O)C(C)C | Phosphatidylinositol 3-kinase regulatory subunit gamma SH2 domain | binding |  |  | Kd | 1.03 µM
CO[C@H]1C[C@@H]2CC[C@@H](C)[C@@](O)(O2)C(=O)C(=O)N2CCCC[C@H]2C(=O)O[C@H]([C@H](C)C[C@@H]2CC[C@@H](OC(=O)NCCOCCOCCOCCOCCOCCOCCOCCOCCC(=O)N3CCc4cc(Cn5nc(-c6ccc7oc(N)nc7c6)c6c(N)ncnc65)ccc4C3)[C@H](OC)C2)C[C@@H](O)[C@H](C)/C=C(\C)[C@@H](O)[C@@H](OC)C(=O)[C@H](C)C[C@H](C)/C=C/C=C/C=C/1C |  |  | patients with advanced solid tumours | intravenous, 12 mg weekly, grade 3 or higher | dysgeusia incidence | 0%
